Measured values gathered from unrelated publications.
A part holds a random share of what one study measured.

Block 1
Target: Ras GTPase-activating protein-binding protein 1, RRM domain (G3BP1, Homo sapiens, UniProt Q13283)
UniProt Q13283, sequence (whole entry, looked up): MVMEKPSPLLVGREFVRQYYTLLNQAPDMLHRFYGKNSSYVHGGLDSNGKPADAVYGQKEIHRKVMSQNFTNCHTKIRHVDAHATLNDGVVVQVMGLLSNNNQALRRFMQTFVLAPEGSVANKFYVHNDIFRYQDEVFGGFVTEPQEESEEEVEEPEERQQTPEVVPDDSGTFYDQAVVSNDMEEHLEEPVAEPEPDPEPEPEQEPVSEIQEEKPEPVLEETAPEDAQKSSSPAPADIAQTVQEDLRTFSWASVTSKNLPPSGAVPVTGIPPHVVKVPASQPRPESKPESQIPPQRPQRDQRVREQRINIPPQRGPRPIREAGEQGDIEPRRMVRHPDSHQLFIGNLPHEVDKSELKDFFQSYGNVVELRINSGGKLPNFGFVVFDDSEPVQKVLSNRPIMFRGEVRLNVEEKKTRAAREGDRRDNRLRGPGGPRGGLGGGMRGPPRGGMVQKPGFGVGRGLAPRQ
Method: RNA Bind-n-Seq
Molecule type: RNA
Matrix: in vitro
Concentration: 1 µM
Notes: whole 134-nt RNA, ends assumed
With: 150 mM KCl
Baseline: input library
Reading: higher = stronger binding
Shared flanks, not repeated: GGGAGUUCUACAGUCCGACGAUC … UGGAAUUCUCGGGUGUCAAGG
| Strand | log2 enrichment |
| --- | --- |
| UGGGAGGUGGAUUUUGUUUAUUUUUUAAGCUCAUUUCCAGGGGUGGGAAUUUUUUUUUAAUAUGUGUCAUGAAUAAAGUUGUUUUUGAAA | 1.7 |
| AAGUCCUGUGCUACACAUCGUAUGUACCGAAUCGGGAGGGAAAAAAAGGGAAAGGGAAAGUAUUAUGUUACGCCGUUCGGAUCUGCACUU | 0.686 |
| AAGUCCUGUGCUACACAUCGUAUGUACCGAAUCGGUUUUUGGAAAAAGGUUUUUGGAAAGUAUUAUGUUACGCCGUUCGGAUCUGCACUU | -0.408 |
| CACAGACAACACGCACCCACACAGACACAGAGGGAAGGGGUUGGGAUGGGGACAGGGUGCACAGCAGGGCGGUGUAGGACCCCAGCCCCU | -0.15 |
| UGGCCCUGGUGGCAUGCGGGGAGGAAGAGGUGGCCUCAUGGAUCGUGGUGGUCCCGCUGGAAUGUUCAGAGGUGGCCGUGGUGGAGACAG | 0.963 |
| CUCAAGUCCUGUGCUACACAUCGUAUGUACCGAAUCGGAAAAAGGAAAGGAGGAAAGUAUUAUGUUACGCCGUUCGGAUCUGCACUUCCA | -0.301 |
| CCUCAAGUCCUGUGCUACACAUCGUAUGUACCGAAUCGGGGAGGGGAGGAGGAAAGUAUUAUGUUACGCCGUUCGGAUCUGCACUUCCAG | -0.326 |
| UUUAGACAGAAACAAGAAGCAACAGAGUCCCUUAAGUGCCAAGAGGAACUUCGAGAGCGCCUUCAUGAGGAGUCCAGGGCCAGAGAACAG | -0.125 |
| UGGGAGGUGGAUUUUGUUUAUUUUUUUAGCUCAUUUCCAGGGGUGGGAAUUUUUUUUUGAUAUGUGUCAUGAAUAAAGUUGUUUUUGAAA | 1.87 |
| CCUGUGCUACACAUCGUAUGUACCGAAUCGGGCCCCCCGGGCCCCCCGGGCCCCCCGGGGAAAGUAUUAUGUUACGCCGUUCGGAUCUGC | -0.647 |

Block 2
Target: TAR DNA-binding protein 43, full length, His tag (TARDBP, Homo sapiens, UniProt Q13148, residues 1-414)
Method: RNA Bind-n-Seq
Molecule type: RNA
Matrix: in vitro
Concentration: 20 nM
Notes: 6-mer, flanks averaged, single round
With: 150 mM LiCl
Baseline: input library
Reading: higher = stronger binding
| Strand | 6-mer enrichment (R) |
| --- | --- |
| UGCUAU | 0.978 |
| UGUCUA | 0.941 |
| UGGGUA | 1.18 |
| UUGCUG | 1.07 |
| UGGCCA | 0.98 |
| AAAGAA | 0.904 |
| AUCCGC | 0.845 |
| AACCAU | 0.86 |
| UUUAAA | 1.03 |
| AUAACA | 1.03 |
| AUUGAA | 0.93 |
| GACGAU | 0.86 |
| AACUCG | 0.809 |
| CCACAA | 0.882 |
| UCAUUU | 1.08 |
| AGUACC | 0.871 |

Block 3
Target: Sox-I, HMG box (Salpingoeca helianthica)
Method: Spec-seq
Molecule type: double-stranded DNA, one strand shown
Matrix: in vitro
Concentration: not given
Notes: whole probe, mean of replicates
Baseline: not given
Reading: lower = stronger binding
Shared flanks, not repeated: GAGTCGTCTCGTCAGCAC … CCGTAGAGCACTCAGGTC
Residues (chain): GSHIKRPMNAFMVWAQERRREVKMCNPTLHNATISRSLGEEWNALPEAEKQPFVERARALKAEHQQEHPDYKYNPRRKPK
| Strand | relative binding energy [ln ratio] |
| --- | --- |
| TAACGTT | 0.677 |
| GGGCGTT | 1.19 |
| CATTTAG | 0.793 |
| CATGCCG | 1.06 |
| CTACGTT | 0.845 |
| ATAGGTT | 0.0763 |
| GGACGTT | 1.15 |
| CATAGCG | 0.355 |
| TTTTGTT | -2.18 |
| CATCCAG | 1.09 |
| TACAGTT | -0.28 |
| CATGTGC | 1.06 |
| CATTATT | -1.27 |
| CATCGAT | 1 |
| CTGTGTT | -0.103 |
| CATCGTA | 0.985 |
| GTGAGTT | 0.693 |
| GTGCGTT | 1.03 |

Block 4
Target: Histone acetyltransferase KAT6A, winged helix 2, GST fusion (KAT6A, Homo sapiens, UniProt Q92794, residues 85-181)
Method: protein binding microarray
Molecule type: double-stranded DNA, one strand shown
Matrix: in vitro
Concentration: not given
Notes: 8-mer, flanks averaged, mean of 2 arrays, mostly near background
Baseline: not given
Reading: higher = stronger binding
Construct (chain): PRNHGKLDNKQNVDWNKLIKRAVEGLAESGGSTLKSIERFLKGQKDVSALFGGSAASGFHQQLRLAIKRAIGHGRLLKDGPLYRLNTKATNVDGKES
| Strand | E-score |
| --- | --- |
| ATCCGGAT | 0.13 |
| AACCCACT | 0.254 |
| GAAATGAA | 0.159 |
| TCATGGCA | 0.078 |
| AGATCACT | 0.16 |
| CCTGCGGA | 0.167 |
| GATATTCC | 0.0921 |
| AGTTGTAC | -0.086 |
| AAACCTCA | 0.038 |
| GATCGCGA | 0.134 |
| AGATGGGC | -0.0976 |
| ATGGAGTC | 0.0247 |
| AAGCAGAG | 0.083 |
| CCTCAGCC | -0.0528 |
| CTCCTCGC | 0.00899 |
| CCAACGCC | 0.0258 |
| CAATAGAA | -0.215 |
| GCACCTAC | -0.0719 |
| CTTTCTAA | 0.15 |
| CTTACCCC | -0.223 |
| CTATCCCA | -0.111 |
| CGAACATC | 0.128 |
| ACACTGAT | -0.088 |
| ACTGTGAT | -0.17 |
| CCCTCCGC | 0.163 |

Block 5
Target: Sal-like protein 4, full length isoform A (SALL4, Homo sapiens, UniProt Q9UJQ4, residues 1-1053)
UniProt Q9UJQ4, sequence (whole entry, looked up): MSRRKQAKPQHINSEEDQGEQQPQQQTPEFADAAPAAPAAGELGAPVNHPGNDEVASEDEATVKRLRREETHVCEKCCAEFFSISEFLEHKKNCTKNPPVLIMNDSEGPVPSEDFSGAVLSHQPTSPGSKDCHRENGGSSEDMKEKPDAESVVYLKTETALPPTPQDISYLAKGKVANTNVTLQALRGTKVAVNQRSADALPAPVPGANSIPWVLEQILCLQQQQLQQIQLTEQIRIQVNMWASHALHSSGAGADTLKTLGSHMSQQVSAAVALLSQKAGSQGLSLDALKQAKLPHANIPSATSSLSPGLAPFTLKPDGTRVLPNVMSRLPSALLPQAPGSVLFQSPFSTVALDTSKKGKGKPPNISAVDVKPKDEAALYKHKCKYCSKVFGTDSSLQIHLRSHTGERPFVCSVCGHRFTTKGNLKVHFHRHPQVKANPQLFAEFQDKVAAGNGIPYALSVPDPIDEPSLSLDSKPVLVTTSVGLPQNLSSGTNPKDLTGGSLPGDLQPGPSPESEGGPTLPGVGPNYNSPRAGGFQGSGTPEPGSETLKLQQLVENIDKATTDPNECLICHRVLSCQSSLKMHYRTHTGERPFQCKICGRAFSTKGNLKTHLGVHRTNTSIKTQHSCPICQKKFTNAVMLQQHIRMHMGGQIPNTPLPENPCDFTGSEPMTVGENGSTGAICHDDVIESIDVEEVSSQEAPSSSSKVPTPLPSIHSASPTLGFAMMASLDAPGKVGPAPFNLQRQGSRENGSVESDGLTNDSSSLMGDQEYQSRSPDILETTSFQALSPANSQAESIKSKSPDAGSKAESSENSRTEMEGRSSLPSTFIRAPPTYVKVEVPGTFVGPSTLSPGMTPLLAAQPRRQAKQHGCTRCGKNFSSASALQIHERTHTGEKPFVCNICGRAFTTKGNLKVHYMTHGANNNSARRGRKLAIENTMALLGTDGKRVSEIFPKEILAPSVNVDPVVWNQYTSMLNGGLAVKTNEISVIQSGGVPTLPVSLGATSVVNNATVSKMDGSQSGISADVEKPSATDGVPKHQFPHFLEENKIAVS
Method: universal PBM
Molecule type: double-stranded DNA, one strand shown
Matrix: in vitro
Concentration: 600 nM
Notes: 8-mer, flanks averaged, mean of replicates
Reading: higher = stronger binding
| Strand | E-score |
| --- | --- |
| AGATTTTC | 0.143 |
| ACGAACTG | -0.0983 |
| CGAGGTTC | -0.054 |
| GTTGATAA | 0.335 |
| ACTGTGCA | -0.0392 |
| TTACGGAA | 0.132 |
| AAGGAGCG | -0.16 |
| GTAAATCA | 0.219 |
| CTAATACC | 0.0593 |
| CTGGATAC | -0.0925 |
| GTGGTTCA | 0.0482 |
| ACTTGCAT | 0.0757 |
| GCCTTCCA | -0.0304 |
| GAGATAGC | -0.0684 |
| CACCGGCA | -0.265 |
| TTCAACAA | 0.213 |
| AATGGCAA | 0.208 |
| GGAGACAC | -0.153 |
| AACTGAGC | -0.229 |
| CATGTGAC | 0.139 |

A few entries again (block 2):
| Strand | 6-mer enrichment (R) |
| --- | --- |
| UGGGUA | 1.18 |
| CCACAA | 0.882 |
| AACCAU | 0.86 |
| AUUGAA | 0.93 |
